{"data": "Measured values collected from several papers", "note": "Every numbered part comes from another study and shows a few of its results, in no order."}
{"data": "Sample 1", "target": "Sal-like protein 4, full length isoform B (SALL4, Homo sapiens, UniProt Q9UJQ4-2, residues 1-616)", "method": "universal PBM", "molecule type": "double-stranded DNA, one strand shown", "medium": "in vitro", "tested at": "not given", "notes": "8-mer, flanks averaged, mean of replicates", "direction": "higher = stronger binding"}
{"Strand": "TAGAAAGA", "E-score": -0.0655}
{"Strand": "CTTCCGTA", "E-score": -0.00268}
{"Strand": "GAGAAAGC", "E-score": -0.0474}
{"Strand": "ATAGAGGA", "E-score": 0.0856}
{"Strand": "GAGCATCC", "E-score": -0.259}
{"Strand": "AGTGCGTC", "E-score": -0.168}
{"Strand": "GTAGTAAA", "E-score": 0.256}
{"Strand": "GACTGATA", "E-score": 0.0448}
{"Strand": "GTTGTCCA", "E-score": 0.0283}
{"Strand": "AATTATAA", "E-score": 0.437}
{"Strand": "ACTGTTCC", "E-score": -0.0901}
{"Strand": "GAAGACGC", "E-score": -0.124}
{"Strand": "AACTCCGT", "E-score": -0.0979}
{"Strand": "GTGCAGCA", "E-score": -0.192}
{"Strand": "AATCGGGT", "E-score": -0.00709}
{"Strand": "CAGCCGGG", "E-score": -0.394}
{"Strand": "GCGTAGTA", "E-score": -0.029}
{"Strand": "CACGTATG", "E-score": 0.133}
{"Strand": "AGTAGCTG", "E-score": -0.0197}
{"Strand": "GATGCAGC", "E-score": -0.149}
{"Strand": "AATGGTTG", "E-score": 0.0555}
{"Strand": "AAGACAGT", "E-score": -0.0743}
{"Strand": "ACCAAGGA", "E-score": -0.135}
{"Strand": "ACTCCTGG", "E-score": -0.312}
{"Strand": "AGCTTACT", "E-score": -0.0096}
{"data": "Sample 2", "target": "RNA binding protein fox-1 homolog 2, RRM domain, GST-SBP tag (RBFOX2, Homo sapiens, UniProt O43251-10, residues 100-194)", "method": "RNA Bind-n-Seq", "molecule type": "RNA", "medium": "in vitro", "tested at": "365 nM", "notes": "natural RNA segment, single round, ends assumed", "reference": "no-protein control", "direction": "higher = stronger binding", "Construct (chain)": "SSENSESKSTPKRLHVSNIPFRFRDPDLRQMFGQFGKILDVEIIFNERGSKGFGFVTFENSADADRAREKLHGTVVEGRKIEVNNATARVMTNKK"}
{"Strand": "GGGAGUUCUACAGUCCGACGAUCCAUUUGUAUGUAUAUAUUGUAUAUACAUAUGAGUGUCUGUAUGUGUGUAUAGAUGGAUGGAUGUAACUCAUACUGUACAUUUCCAUCAGGGCACUUAAAAGUUCUGUUAUUGGAAUUCUCGGGUGCCAA", "RBNS enrichment (R)": 0.206}
{"Strand": "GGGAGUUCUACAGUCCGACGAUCACCUGUCACGGGGAACAUGGAGCCUUGGUGUAUUUUUCUUUUCUUUUUUUAAUGAAUCAAUAGCAGCGUCCAGUCCCCCAGGGCUGCUUCCUGCCUGCACCUGCGGUGACUGGAAUUCUCGGGUGCCAA", "RBNS enrichment (R)": 0.657}
{"Strand": "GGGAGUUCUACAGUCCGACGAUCAAUACAGCAGGCAAAGGACUGAGUGAAGCUGGCCACACCACACGUUUAUACGGAUUUCGGAUUUCUACCCACGUUUCCUCACUCUGUUUUCUAUAUAUUCUAUAUAAAUAUGGAAUUCUCGGGUGCCAA", "RBNS enrichment (R)": 0.752}
{"Strand": "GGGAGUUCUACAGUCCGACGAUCAGCUAUUUCUAAAGUAAACAUUUUAUCUGUUACUUUUAACCAGAUAGGUGUCUUUGUCAUCCUUCUACUAUAAAUUGUUCUUUGCCAACCUGUACAGGUAGAUGAACCAGUGGAAUUCUCGGGUGCCAA", "RBNS enrichment (R)": 0.305}
{"Strand": "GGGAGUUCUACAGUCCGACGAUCCCUAUUCCAUCAAAACCCAGUUUAACUCGGAGGAGCAGUGGACAAAAGCGCUCAAGUUCAUGCUGACCAAUCUCAAGUGGGGUCUUGCCUGGGUGUCCUCACAGUUCUAUUGGAAUUCUCGGGUGCCAA", "RBNS enrichment (R)": 0.632}
{"Strand": "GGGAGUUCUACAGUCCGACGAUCCACAAGGCGCUCAUGGGUUUCAGGGAGUGGGAGGGACUGUUUUUCUCCGUUGCUCUUCCUCCUUGUUUUCUGGGUGUUUUCCUGCAGAGAUCUUUUGGGUUUAUUUUGAGUGGAAUUCUCGGGUGCCAA", "RBNS enrichment (R)": 1.63}
{"Strand": "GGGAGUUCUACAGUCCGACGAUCCCUGCUGUCCCUCACUCACCUGUCACCUGUCACCCUACGGGGACCCACUUGUGGCUUCCCACGUGGUUGUACAUAUUUGUCAUUUAAGAUCUUUCUUCCCGCCGCUUGGCUGGAAUUCUCGGGUGCCAA", "RBNS enrichment (R)": 0.316}
{"Strand": "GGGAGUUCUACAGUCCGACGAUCUUUGAAACAAGGAAGCUGCGCUCUGUCAUGUGCUGCCUUUUUUAUUUAUUCAGGCUAAACCUACAAUAUGUGAAUCAACCCGUUUAAUGAAUCCUGGGACAUGCUGAUGAUGGAAUUCUCGGGUGCCAA", "RBNS enrichment (R)": 0.555}
{"data": "Sample 3", "target": "Histone acetyltransferase KAT6A, both winged helices, GST fusion (KAT6A, Homo sapiens, UniProt Q92794, residues 1-181)", "method": "protein binding microarray", "molecule type": "double-stranded DNA, one strand shown", "medium": "in vitro", "tested at": "not given", "notes": "8-mer, flanks averaged, mean of 2 arrays, mostly near background", "reference": "not given", "direction": "higher = stronger binding", "Target sequence (chain)": "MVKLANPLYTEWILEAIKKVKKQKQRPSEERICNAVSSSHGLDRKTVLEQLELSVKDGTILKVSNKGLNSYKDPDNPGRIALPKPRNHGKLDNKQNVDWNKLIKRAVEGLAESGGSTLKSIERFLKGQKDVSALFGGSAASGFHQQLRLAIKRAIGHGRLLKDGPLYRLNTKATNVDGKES"}
{"Strand": "TTGGAAAA", "E-score": -0.0313}
{"Strand": "GGAACTAA", "E-score": 0.0444}
{"Strand": "AAGTTCGA", "E-score": -0.0462}
{"Strand": "AGAGGAAG", "E-score": -0.223}
{"Strand": "CTAGCCAG", "E-score": -0.28}
{"Strand": "CTGACGGC", "E-score": 0.235}
{"Strand": "ATTCACGA", "E-score": -0.176}
{"Strand": "GGCGCGCC", "E-score": 0.384}
{"Strand": "CTCGGTAA", "E-score": 0.0497}
{"Strand": "AGTCTCCC", "E-score": -0.03}
{"Strand": "ATTTATGG", "E-score": -0.076}
{"Strand": "CGACTTAG", "E-score": -0.126}
{"Strand": "CAATTCGG", "E-score": 0.0647}
{"Strand": "AACGTACG", "E-score": 0.164}
{"Strand": "CCGCTATC", "E-score": 0.162}
{"Strand": "CCATATGA", "E-score": -0.11}
{"Strand": "CCTACGGA", "E-score": 0.152}
{"Strand": "CACGTGCA", "E-score": -0.0988}
{"Strand": "CATCTTAA", "E-score": -0.156}
{"Strand": "CGAGCTAA", "E-score": -0.0408}
{"Strand": "AACACGGG", "E-score": 0.225}
{"Strand": "CGGCTTGC", "E-score": 0.204}
{"Strand": "GCAGATCA", "E-score": -0.0574}
{"Strand": "CCGGCGAG", "E-score": 0.203}
{"Strand": "AGGGCAAG", "E-score": -0.192}
{"data": "Sample 4", "target": "Centromere-binding protein 1, full length, N-terminal tag (CBF1, Saccharomyces cerevisiae, UniProt P17106, residues 1-351)", "method": "protein-binding microarray", "molecule type": "double-stranded DNA, one strand shown", "medium": "in vitro", "tested at": "0.8 µM", "notes": "whole 60-bp probe, no competitor", "direction": "higher = stronger binding", "UniProt P17106, sequence (whole entry, looked up)": "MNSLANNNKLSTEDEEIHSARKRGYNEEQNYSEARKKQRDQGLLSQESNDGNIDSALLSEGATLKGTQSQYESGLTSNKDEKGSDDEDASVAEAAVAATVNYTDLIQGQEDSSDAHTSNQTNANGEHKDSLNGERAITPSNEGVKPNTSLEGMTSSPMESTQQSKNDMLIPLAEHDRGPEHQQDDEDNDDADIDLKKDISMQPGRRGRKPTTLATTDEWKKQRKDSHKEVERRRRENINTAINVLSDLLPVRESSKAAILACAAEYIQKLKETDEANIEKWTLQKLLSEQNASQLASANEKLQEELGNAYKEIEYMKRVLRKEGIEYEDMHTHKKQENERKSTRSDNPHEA"}
{"Strand": "CTAAGTGTAAGACACCACCTCTTAATTACTGGTTTCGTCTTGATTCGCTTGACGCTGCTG", "fluorescence intensity [a.u.]": 470}
{"Strand": "GAACATTATCTACGTGATTATACATATAGTTATTAGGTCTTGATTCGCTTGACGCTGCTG", "fluorescence intensity [a.u.]": 1050}
{"Strand": "CCTAACTACTATAAACCATCAGCATAGCTTCGTACAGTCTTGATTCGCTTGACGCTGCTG", "fluorescence intensity [a.u.]": 520}
{"Strand": "GAACTGTACAGTCGTCACATCAGACGAATACAATAGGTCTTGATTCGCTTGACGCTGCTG", "fluorescence intensity [a.u.]": 555}
{"Strand": "GAAGCTGTCGTTCGGCACGAGATCTAATCCTTCTAGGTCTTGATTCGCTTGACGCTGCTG", "fluorescence intensity [a.u.]": 810}
{"Strand": "TGTACGAAGCTATATCATGTGACTATAGTAGTTAGGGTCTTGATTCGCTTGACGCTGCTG", "fluorescence intensity [a.u.]": 5160}
{"Strand": "CTATTCAGAGATGATCACGTGATATAAACGTGATTCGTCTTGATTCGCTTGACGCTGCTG", "fluorescence intensity [a.u.]": 32500}
{"Strand": "CTACAATAACATATGCACATGGCAACGGGTCTTTTCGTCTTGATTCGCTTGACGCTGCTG", "fluorescence intensity [a.u.]": 679}
{"Strand": "CTAAGTTGTAAGTAACACGTTCCCTGAGAAACCTTCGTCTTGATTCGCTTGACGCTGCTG", "fluorescence intensity [a.u.]": 548}
{"Strand": "GAATCTGCCTATGCCTTCGTGGGGCATCTCTTATAGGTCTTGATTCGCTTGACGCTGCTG", "fluorescence intensity [a.u.]": 496}
{"Strand": "CTAGACAGCCAGTGTCACGCAGACAAATAACATTTCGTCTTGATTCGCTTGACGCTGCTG", "fluorescence intensity [a.u.]": 662}
{"Strand": "CTACATAGTGCGGGTCACCTTGAAAAATCCAAATTCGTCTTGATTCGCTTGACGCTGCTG", "fluorescence intensity [a.u.]": 515}
{"Strand": "GAATGTTTGCGGGCTCACCTGGATGAAGCTAAGTAGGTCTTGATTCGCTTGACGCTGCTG", "fluorescence intensity [a.u.]": 554}
{"Strand": "GAAAGTCACTTTAACCACGAGGGGAAAAAACACTAGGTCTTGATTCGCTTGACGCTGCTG", "fluorescence intensity [a.u.]": 719}
{"Strand": "GAATACTTTATACAACATGTGAAATCTTCTGCTTAGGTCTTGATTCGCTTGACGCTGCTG", "fluorescence intensity [a.u.]": 623}
{"Strand": "CTAAAATAATTCAATCTCAACTGATAAAAACAATTCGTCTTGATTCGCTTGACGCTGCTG", "fluorescence intensity [a.u.]": 549}
{"Strand": "GAATTCTGGGGTTACCACGATTACCAGCGGAGTTAGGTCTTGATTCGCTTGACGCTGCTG", "fluorescence intensity [a.u.]": 479}
{"Strand": "GAAAACAGAGACTGCCACGTTATCAGCATCGCGTAGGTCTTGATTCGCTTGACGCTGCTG", "fluorescence intensity [a.u.]": 576}
{"Strand": "CTAATGTAGTATACACACGTGGACGACCATTAATTCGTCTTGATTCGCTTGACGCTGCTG", "fluorescence intensity [a.u.]": 2630}
{"note": "Excerpt of the above (sample 1):"}
{"Strand": "GTAGTAAA", "E-score": 0.256}
{"Strand": "GACTGATA", "E-score": 0.0448}
{"Strand": "GTTGTCCA", "E-score": 0.0283}
{"Strand": "AATTATAA", "E-score": 0.437}
{"Strand": "ACTGTTCC", "E-score": -0.0901}
{"Strand": "GAAGACGC", "E-score": -0.124}
{"Strand": "AACTCCGT", "E-score": -0.0979}
{"Strand": "GTGCAGCA", "E-score": -0.192}
{"Strand": "AATCGGGT", "E-score": -0.00709}
{"Strand": "CAGCCGGG", "E-score": -0.394}
{"Strand": "GCGTAGTA", "E-score": -0.029}
{"Strand": "CACGTATG", "E-score": 0.133}
{"Strand": "AGTAGCTG", "E-score": -0.0197}
